{"data": "Values quoted from earlier work as cited in several papers", "note": "Each line is one published result; not all experiments were run side by side. ± gives the spread as reported.", "UniProt P41145, sequence (whole entry, looked up)": "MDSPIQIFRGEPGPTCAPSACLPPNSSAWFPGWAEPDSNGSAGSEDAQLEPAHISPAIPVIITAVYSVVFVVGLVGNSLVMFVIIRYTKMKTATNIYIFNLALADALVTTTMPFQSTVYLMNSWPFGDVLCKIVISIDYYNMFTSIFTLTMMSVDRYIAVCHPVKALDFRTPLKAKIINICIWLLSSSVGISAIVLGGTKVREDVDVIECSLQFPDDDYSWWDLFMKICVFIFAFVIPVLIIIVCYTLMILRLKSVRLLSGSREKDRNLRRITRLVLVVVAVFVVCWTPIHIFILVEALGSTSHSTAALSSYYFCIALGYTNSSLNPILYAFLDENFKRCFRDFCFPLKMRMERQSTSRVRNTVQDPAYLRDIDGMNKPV", "UniProt Q01959, sequence (whole entry, looked up)": "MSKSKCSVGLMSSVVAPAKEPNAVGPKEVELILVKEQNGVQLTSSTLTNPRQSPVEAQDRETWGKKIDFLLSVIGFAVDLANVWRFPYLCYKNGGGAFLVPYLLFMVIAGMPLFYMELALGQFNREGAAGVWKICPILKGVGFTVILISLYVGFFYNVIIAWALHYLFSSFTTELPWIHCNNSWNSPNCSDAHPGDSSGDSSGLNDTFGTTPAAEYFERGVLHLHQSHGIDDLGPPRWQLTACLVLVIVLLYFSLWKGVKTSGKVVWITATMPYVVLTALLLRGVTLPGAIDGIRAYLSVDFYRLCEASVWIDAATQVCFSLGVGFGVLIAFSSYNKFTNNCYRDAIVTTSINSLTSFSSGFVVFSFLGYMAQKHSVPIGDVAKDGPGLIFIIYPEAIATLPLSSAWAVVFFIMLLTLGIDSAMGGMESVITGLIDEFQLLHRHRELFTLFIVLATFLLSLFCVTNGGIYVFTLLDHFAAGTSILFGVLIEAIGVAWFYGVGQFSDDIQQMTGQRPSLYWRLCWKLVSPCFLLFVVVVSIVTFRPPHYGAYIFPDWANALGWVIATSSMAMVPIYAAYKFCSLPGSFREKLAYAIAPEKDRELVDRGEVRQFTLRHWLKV"}
{"SMILES": "C[C@@H]1N=C[C@H](O)[C@H]1O", "target": "Penicillium decumbens α-L-rhamnosidase", "endpoint": "Ki", "result": "140 nM"}
{"SMILES": "Cc1cc(-c2ccccc2)n2nc(C(=O)Nc3sc4c(c3C(N)=O)CCCCC4)nc2n1", "target": "Polymerase acidic protein, with PB1, PB2 (Influenza A virus, UniProt P03433)", "assay": "RdRP activity, minireplicon", "endpoint": "IC50", "result": "12000 nM"}
{"SMILES": "COC(=O)C1C(c2ccc(C)cc2)CC2CCC1N2CC=CC[18F] (stereo not drawn)", "target": "Sodium-dependent dopamine transporter (SLC6A3, Homo sapiens, UniProt Q01959)", "endpoint": "Ki", "result": "26 nM"}
{"SMILES": "O=C(N[C@H]1CC[C@@]2(O)[C@H]3Cc4ccc(O)c5c4[C@@]2(CCN3CC2CC2)[C@H]1O5)c1cccc2ccoc12", "target": "Kappa-type opioid receptor (OPRK1, Homo sapiens, UniProt P41145)", "assay": "binding", "setting": "with: [3H]diprenorphine", "endpoint": "Ki", "result": "5.12 ± 0.96 nM"}
{"SMILES": "CCCCCn1cc(C(=O)c2cccc3c2CC(C)(C)C3)c2ccccc21", "target": "cannabinoid receptor CB2", "assay": "binding", "endpoint": "Ki", "result": "1.36 ± 0.52 nM"}
{"SMILES": "OC[C@H]1N[C@H](CO)[C@@H](O)[C@@H]1O", "target": "yeast α-glucosidase", "endpoint": "Ki", "result": "330 nM"}
{"SMILES": "CCOC(=O)C1C(OC(c2ccc(Cl)cc2)c2ccc(Cl)cc2)CC2CCC1N2C (single isomer, unassigned)", "target": "muscarinic M1 receptor", "endpoint": "Ki", "result": "3060 ± 150 nM"}
{"SMILES": "C[C@]12CC[C@@H](O)C[C@@H]1CC[C@@H]1[C@@H]2C(=O)C[C@]2(C)C(C#N)=CC[C@@H]12", "target": "GABAA receptor picrotoxin site", "endpoint": "IC50", "result": "361 ± 58 nM"}
{"SMILES": "CCCCCn1cc(C(=O)N2CCN(C)CC2)c2ccccc21", "target": "cannabinoid CB2 receptor", "assay": "binding", "endpoint": "Ki", "result": "> 1000 nM"}
{"note": "A few entries again:"}
{"SMILES": "COC(=O)C1C(c2ccc(C)cc2)CC2CCC1N2CC=CC[18F] (stereo not drawn)", "target": "Sodium-dependent dopamine transporter (SLC6A3, Homo sapiens, UniProt Q01959)", "endpoint": "Ki", "result": "26 nM"}
